Results gathered from unrelated publications.
Every numbered part comes from another study and shows a few of its results, in no order. Positions count from the first letter of the parent shown.
UniProt Q9H4B4, sequence (whole entry, looked up): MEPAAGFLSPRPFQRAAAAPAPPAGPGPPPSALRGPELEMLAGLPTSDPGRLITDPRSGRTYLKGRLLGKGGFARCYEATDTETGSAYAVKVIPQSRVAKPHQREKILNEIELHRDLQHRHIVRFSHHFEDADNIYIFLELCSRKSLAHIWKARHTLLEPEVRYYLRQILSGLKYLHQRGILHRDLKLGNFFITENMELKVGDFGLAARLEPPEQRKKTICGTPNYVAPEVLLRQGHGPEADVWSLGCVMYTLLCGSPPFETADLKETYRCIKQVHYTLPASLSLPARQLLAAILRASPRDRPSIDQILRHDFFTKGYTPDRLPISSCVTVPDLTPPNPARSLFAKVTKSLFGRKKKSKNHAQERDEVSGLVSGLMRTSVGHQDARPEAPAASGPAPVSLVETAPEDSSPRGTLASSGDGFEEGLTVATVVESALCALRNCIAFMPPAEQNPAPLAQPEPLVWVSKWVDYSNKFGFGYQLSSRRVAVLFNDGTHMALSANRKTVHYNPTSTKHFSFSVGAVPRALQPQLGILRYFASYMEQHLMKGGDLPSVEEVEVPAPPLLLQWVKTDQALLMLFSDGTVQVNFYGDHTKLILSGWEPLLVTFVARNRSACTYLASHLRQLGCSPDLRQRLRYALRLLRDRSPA
UniProt P31751, sequence (whole entry, looked up): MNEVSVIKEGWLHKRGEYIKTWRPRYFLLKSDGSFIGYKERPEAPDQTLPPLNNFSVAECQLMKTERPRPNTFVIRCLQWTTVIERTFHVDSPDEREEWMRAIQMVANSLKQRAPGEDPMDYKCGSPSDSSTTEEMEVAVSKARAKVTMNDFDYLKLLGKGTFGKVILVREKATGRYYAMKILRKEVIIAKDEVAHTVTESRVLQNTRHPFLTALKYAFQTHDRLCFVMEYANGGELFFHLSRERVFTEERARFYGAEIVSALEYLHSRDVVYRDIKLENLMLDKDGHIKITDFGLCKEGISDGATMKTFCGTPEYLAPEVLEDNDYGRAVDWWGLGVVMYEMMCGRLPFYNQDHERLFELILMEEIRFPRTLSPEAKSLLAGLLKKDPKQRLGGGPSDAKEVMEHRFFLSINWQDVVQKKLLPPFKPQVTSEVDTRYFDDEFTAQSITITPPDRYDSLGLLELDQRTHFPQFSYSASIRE
UniProt Q9Y5S2, sequence (whole entry, looked up): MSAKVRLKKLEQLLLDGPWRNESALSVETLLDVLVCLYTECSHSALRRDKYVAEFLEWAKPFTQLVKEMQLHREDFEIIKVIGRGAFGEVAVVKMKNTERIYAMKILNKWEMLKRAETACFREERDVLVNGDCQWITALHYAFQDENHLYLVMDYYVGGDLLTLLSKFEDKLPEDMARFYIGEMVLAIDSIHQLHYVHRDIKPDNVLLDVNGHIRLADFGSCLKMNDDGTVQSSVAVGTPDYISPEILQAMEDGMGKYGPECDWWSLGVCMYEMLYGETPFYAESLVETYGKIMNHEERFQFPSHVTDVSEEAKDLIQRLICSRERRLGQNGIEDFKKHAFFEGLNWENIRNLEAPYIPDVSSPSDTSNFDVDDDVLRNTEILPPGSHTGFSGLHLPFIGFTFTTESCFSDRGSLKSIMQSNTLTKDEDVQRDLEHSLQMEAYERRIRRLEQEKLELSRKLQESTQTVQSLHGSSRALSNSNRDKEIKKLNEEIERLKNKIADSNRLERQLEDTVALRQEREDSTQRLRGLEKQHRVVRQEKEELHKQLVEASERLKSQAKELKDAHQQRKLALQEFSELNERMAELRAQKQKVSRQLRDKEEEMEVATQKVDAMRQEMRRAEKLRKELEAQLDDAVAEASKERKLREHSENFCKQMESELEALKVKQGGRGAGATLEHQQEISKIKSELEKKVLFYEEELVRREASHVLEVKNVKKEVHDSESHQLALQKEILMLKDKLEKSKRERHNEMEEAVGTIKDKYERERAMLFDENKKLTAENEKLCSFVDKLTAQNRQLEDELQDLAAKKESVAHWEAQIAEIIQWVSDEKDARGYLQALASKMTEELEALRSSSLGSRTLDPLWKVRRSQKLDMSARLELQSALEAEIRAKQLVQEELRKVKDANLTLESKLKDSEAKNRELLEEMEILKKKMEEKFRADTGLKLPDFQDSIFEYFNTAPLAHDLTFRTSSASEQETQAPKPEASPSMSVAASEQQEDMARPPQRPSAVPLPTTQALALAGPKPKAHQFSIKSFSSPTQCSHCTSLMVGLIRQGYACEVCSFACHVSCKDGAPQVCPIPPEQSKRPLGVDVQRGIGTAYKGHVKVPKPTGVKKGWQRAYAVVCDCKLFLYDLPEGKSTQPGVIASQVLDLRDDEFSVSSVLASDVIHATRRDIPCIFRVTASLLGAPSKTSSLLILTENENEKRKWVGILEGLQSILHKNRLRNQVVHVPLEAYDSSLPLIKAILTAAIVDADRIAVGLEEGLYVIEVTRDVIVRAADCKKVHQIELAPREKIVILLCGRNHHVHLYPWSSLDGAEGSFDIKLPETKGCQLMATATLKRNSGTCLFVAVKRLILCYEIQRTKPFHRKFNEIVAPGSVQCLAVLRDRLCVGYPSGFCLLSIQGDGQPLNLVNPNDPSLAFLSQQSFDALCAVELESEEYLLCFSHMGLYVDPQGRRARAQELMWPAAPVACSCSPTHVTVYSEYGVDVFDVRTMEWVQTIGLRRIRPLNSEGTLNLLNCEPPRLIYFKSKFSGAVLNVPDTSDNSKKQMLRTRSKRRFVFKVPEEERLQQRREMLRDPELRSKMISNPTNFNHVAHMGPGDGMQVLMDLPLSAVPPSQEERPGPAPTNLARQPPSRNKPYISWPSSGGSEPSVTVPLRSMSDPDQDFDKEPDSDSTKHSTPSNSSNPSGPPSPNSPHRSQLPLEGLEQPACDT
UniProt P50750, sequence (whole entry, looked up): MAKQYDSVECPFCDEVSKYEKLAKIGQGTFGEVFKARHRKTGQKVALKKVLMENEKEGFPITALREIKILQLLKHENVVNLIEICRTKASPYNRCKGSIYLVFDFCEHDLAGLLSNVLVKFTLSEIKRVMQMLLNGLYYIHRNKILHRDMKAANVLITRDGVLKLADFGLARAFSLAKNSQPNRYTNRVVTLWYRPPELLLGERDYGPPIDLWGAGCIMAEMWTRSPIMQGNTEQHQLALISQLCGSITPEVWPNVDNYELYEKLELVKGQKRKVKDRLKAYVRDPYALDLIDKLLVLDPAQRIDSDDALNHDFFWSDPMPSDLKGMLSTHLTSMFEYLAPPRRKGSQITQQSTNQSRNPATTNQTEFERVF

Series 1
Target: PABPC1L2, full length, GST fusion (mouse, UniProt A0ABA7IW68)
Method: RNAcompete
Molecule type: RNA
Matrix: in vitro
Concentration: 20 nM
Setting: 7-mer, probes averaged, single round
Relative to: mean of 7-mers
Reading: higher = stronger binding
Residues (chain): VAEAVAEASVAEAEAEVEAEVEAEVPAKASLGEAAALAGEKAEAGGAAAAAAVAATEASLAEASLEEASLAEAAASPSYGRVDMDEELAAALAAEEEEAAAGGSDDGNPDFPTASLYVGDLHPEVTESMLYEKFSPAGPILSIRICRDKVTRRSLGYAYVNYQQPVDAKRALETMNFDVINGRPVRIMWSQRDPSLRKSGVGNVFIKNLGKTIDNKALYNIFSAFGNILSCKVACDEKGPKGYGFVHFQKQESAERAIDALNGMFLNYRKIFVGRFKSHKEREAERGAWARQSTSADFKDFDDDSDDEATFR
| Sequence | 7-mer Z-score |
| --- | --- |
| GGGUCUG | -0.0301 |
| UGCUAAA | 0.84 |
| AUCGUUU | -0.501 |
| GACUCCC | -0.293 |
| CCUGGAA | -0.0899 |
| ACCCAGG | -0.0101 |
| GACCUUG | -0.262 |
| GUGCGAG | -0.0591 |

Series 2
Target: vanadate, free oxyanion
Method: microfluidic competitive inhibition
Matrix: in vitro, cell-free expressed
Concentration: not given
Setting: derived from inhibition constants, unchanged parent 676 nM
Reading: lower = stronger binding
Starting sequence: PafA, mature enzyme, eGFP fusion (Elizabethkingia meningoseptica, UniProt Q9KJX5); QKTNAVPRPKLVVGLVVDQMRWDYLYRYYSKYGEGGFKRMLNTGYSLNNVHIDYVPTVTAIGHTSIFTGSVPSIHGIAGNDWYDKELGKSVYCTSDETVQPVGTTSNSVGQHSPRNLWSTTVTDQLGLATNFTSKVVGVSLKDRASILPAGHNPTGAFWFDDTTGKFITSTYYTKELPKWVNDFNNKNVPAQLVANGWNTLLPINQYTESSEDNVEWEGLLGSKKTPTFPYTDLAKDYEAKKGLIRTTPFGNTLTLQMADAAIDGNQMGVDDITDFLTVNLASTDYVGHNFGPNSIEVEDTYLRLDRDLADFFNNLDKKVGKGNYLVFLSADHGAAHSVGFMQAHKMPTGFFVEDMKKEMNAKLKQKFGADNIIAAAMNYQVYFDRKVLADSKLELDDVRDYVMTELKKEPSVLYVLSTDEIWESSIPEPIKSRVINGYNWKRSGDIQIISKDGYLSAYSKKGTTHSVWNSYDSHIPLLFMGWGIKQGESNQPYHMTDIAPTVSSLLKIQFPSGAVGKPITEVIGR
| Variant | oxyanion analog dissociation constant |
| --- | --- |
| H495V | 524 nM |
| F158G | 4.12 µM |
| S113G | 607 nM |
| S330G | 869 nM |
| K518V | 652 nM |
| K486G | 684 nM |
| K358G | 960 nM |
| C93V | 575 nM |
| T130V | 910 nM |
| G350A | 780 nM |
| Y383G | 881 nM |
| G219V | 719 nM |
| G127V | 692 nM |
| E429V | 561 nM |
| L326V | 540 nM |
| V468G | 812 nM |
| G222A | 524 nM |
| S451V | 731 nM |
| P428G | 832 nM |
| E216G | 772 nM |
| S490V | 2.78 µM |
| S210G | 578 nM |
| Q1G | 612 nM |
| T105G | 1.03 µM |
| K322G | 683 nM |

Series 3
Compound: N/C(=N\[N+](=O)[O-])N/N=C\c1ccc(-c2cccc([N+](=O)[O-])c2)o1
Read-out: enzyme activity
Action: inhibitor
Concentration: 0.5 µM
Relative to: control
| target | remaining activity |
| --- | --- |
| AKT2 (Homo sapiens, UniProt P31751) | 99.7% |
| Cyclin-dependent kinase 9, with cyclin K (CDK9, Homo sapiens, UniProt P50750) | 95.7% |
| PLK3 (Homo sapiens, UniProt Q9H4B4) | 96.8% |
| CDC42BPB (Homo sapiens, UniProt Q9Y5S2) | 95.4% |

Series 4
Target: CCNE2, cyclin fold, Cln2 fusion (human)
Method: yeast growth competition, sequencing
Matrix: yeast
Setting: strong parent motif
Relative to: not given
Reading: higher = stronger binding
Starting sequence: viral docking peptide; TSVRRALFTGGSD
| Variant | normalised enrichment score |
| --- | --- |
| R4W | 0.952 |
| L7V | 0.509 |
| V3G | 0.184 |
| R4F | 1.35 |
| R4P | 0.454 |
| V3Q | 0.0713 |
| R4N | 0.672 |
| R4I | 1.89 |
| F8N | 0.289 |
| S2R | 3.5 |
| L7Q | 0.0792 |
| L7K | 0.318 |
| T9N | 2.7 |
| T9V | 3.88 |
| S2Y | 2.81 |
| G10M | 2.91 |

Repeated from above (series 3):
| target | remaining activity |
| --- | --- |
| Cyclin-dependent kinase 9, with cyclin K (CDK9, Homo sapiens, UniProt P50750) | 95.7% |
| CDC42BPB (Homo sapiens, UniProt Q9Y5S2) | 95.4% |
| AKT2 (Homo sapiens, UniProt P31751) | 99.7% |
| PLK3 (Homo sapiens, UniProt Q9H4B4) | 96.8% |
